Assay results of several laboratories.
A part holds a random share of what one study measured. Changes are numbered by the printed parent chain.

Sample 1 — target: CCNE1, cyclin fold, Cln2 fusion (human); method: yeast growth competition, sequencing; sample: yeast; setting: strong parent motif; relative to: not given; direction: higher = stronger binding; quantity: normalised enrichment score
Starting sequence: GMNC docking peptide (human); KNAKRNLSSEFAN
Variant = KSAKRNLSSEFAN [N2S]; result = 1.63
Variant = KNAKCNLSSEFAN [R5C]; result = 0.0623
Variant = KNAKRNLSSDFAN [E10D]; result = 0.545
Variant = KNALRNLSSEFAN [K4L]; result = 0.634
Variant = KNAKRNLSWEFAN [S9W]; result = 1.63
Variant = KNAKRNLSSEFVN [A12V]; result = 0.703
Variant = KNAKRNLASEFAN [S8A]; result = 1.55
Variant = KNAKKNLSSEFAN [R5K]; result = 0.287
Variant = KNAKRVLSSEFAN [N6V]; result = 0.303
Variant = KNEKRNLSSEFAN [A3E]; result = 0.0505
Variant = KNAKRNLSSEFNN [A12N]; result = 1.54
Variant = KNAKRNLSSHFAN [E10H]; result = 0.269
Variant = KNADRNLSSEFAN [K4D]; result = 0.146

Sample 2 — target: UBE2I UBC core domain (UniProt P63279); method: yeast two-hybrid; sample: yeast; setting: mostly zero background; relative to: not given; direction: higher = stronger interaction; quantity: lacZ reporter activity
B1: TRIM63 RING domain (UniProt Q969Q1); chain PMENLEKQLICPICLEMFTKPVVILPCQHNLCRKCANDIFQAANPYWTSRGSSVSMSGGRFRCPTCRHEVIMDRHGV
B2: TRIM8 RING domain (UniProt Q9BZR9); chain WKNCFEEELICPICLHVFVEPVQLPCKHNFCRGCIGEAWAKDSGLVRCPECNQAYNQKPGLE
B3: PHF21A RING domain (UniProt Q96BD5); chain SPTSTDGDIHEDFCSVCRKSGQLLMCDTCSRVYHLDCLDPPLKTIPKGMWICPRCQDQMLKKEEAIPW
B4: RNF25 RING domain (UniProt Q96BH1); chain LTDNNIPHGQCVICLYGFQEKEAFTKTPCYHYFHCHCLARYIQHMEQELKAQGQEQEQERQHATTKQKAVGVQCPVCREPLVYDLASL
B5: RC3H2 RING domain (UniProt Q9HBD1); chain QAAQWTEFLSCPICYNEFDENVHKPISLGCSHTVCKTCLNKLHRKACPFDQTAINTDIDVL
Molecule = B1 (TRIM63 RING domain); result = 0
Molecule = B2 (TRIM8 RING domain); result = 0
Molecule = YWAMDSTFELCKICAESNKDVKIEPCGHLLCSCCLAAWQHSDSQTCPFCRCEIKGWEAVS (CBLC RING domain (UniProt Q9ULV8)); result = 0
Molecule = EDEVSDNSAECVVCLSDVRDTLILPCRHLCLCNTCADTLRYQANNCPICRLPFRALLQIR (RNF157 RING domain (UniProt Q96PX1)); result = 0
Molecule = QLRRLQEERTCKVCMDKEVSIVFIPCGHLVVCKDCAPSLRKCPICRSTIKGTVRTF (BIRC3 RING domain (UniProt Q13489)); result = 0
Molecule = QHHELTSLFECPVCFDYVLPPILQCQAGHLVCNQCRQKLSCCPTCRGALTPSIRNL (SIAH2 RING domain (UniProt O43255)); result = 0
Molecule = FASPPDSNFVCSVCHGVLKRPARLPCSHIFCKKCILRWLARQKTCPCCRKEVKRKKVVH (RNF151 RING domain (UniProt Q2KHN1)); result = 0
Molecule = QLQDIKEQTMCPVCLDRLKNMIFLCGHGTCQLCGDRMSECPICRKAIERRILLY (MIB1 RING domain (UniProt Q86YT6)); result = 0
Molecule = B3 (PHF21A RING domain); result = 0
Molecule = DAIPSLSECQCGICMEILVEPVTLPCNHTLCKPCFQSTVEKASLCCPFCRRRVSSWTRYH (RNF168 RING domain (UniProt Q8IYW5)); result = 0
Molecule = B4 (RNF25 RING domain); result = 0
Molecule = B5 (RC3H2 RING domain); result = 0

Sample 3 — method: RNA Bind-n-Seq; form: RNA; sample: in vitro; tested at: 365 nM; relative to: no-protein control; direction: higher = stronger binding; quantity: RBNS enrichment (R)
Target: RNA binding protein fox-1 homolog 2, RRM domain, GST-SBP tag (RBFOX2, Homo sapiens, UniProt O43251-10, residues 100-194)
Setting: natural RNA segment, single round, ends assumed
Target sequence (chain): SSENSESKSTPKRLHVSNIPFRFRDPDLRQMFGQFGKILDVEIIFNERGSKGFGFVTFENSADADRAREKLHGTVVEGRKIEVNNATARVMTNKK
Strand = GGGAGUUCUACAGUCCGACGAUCCUAGAGUGGUUACAUUUAAUCAGGCAGUAAGAUAAUUUGGGUUCUUGAGUUGUUUUGGAGUAAUAUCCCACAACUGGGGUAGGAAGCUCAGGACUUUUUUCUUUAAAGCUUGGAAUUCUCGGGUGCCAA; result = 0.495
Strand = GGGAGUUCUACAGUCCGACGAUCUUUGAUGGCUUUUUUUGCCUACCAUUUCACAGAGGUUUAGACAGCAGUAGUAGCUCCCUAGGAGAGUUUACUGAUGAAACAGCCUCUGCAAGAUUUUAAAAGUUUUGUUCUGGAAUUCUCGGGUGCCAA; result = 0.396
Strand = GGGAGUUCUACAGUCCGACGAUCUUAAGUUUUCAUUUUUGAGGGGUAAUCACCUUCAAGUAAAACAGUAAUAGCAAGAGUGAAGGUACUUUGGAACCACUAACACCUCUGCACAGGGCAGUUAGCCAGCUCAAUGGAAUUCUCGGGUGCCAA; result = 0.301
Strand = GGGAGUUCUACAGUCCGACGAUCCACCACCCUCCUGCUGCCACAGAAGGAAGUUCUCAGUAUACACCACAGUGCACGUGCAUGAUGGAGCUGUGGGACCCUCUCUGGGCUGGGUCUCAUCUGUAAGCUGCUACUGGAAUUCUCGGGUGCCAA; result = 7.18
Strand = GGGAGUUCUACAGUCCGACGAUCUUGAUAAUAGUAGGUGAAGGUUCUGGAGGCCUUUACCAGGACAGAGCUAGAAUCGAGCCAGUAAACAGUCUAAGCCAGAAAAAUAAUUUUCAAAUGCUUUACCUGUAUUUUGGAAUUCUCGGGUGCCAA; result = 0.605
Strand = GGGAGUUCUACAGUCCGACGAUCUGGCUCAGGCGCUCCCUCCAGGAUUCUGCCCCUGCCUGUCCACAGACUCCUUUGUGCUGGAACCUGGGCUCCUCCAGCUGCCAGGCAGGAGUCGGUAGGACUGUGCCUGUUGGAAUUCUCGGGUGCCAA; result = 1.64
Strand = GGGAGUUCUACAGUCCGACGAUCCAACAAUUAAUAGUUGAAAUUGUGAGGUUAAUGUUUAAAAAGCUUUACACCUGUUUACAAUUUGGGGACAAAAAGGCAGGCUUCAUUUUUCAUAUGUUUGAUGAAAACUGUGGAAUUCUCGGGUGCCAA; result = 0.498
Strand = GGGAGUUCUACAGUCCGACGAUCCCCGUGUCUGGAUGAAGGGCUUUCGGAAUGUAGAUGGUCAGGAGGUGCAUGCUGCUAUGUGAAUCUUAAAACUCCCUGCUGGAGGGAGGAGGCUGCUACAUUCCUCUCGUUGGAAUUCUCGGGUGCCAA; result = 4.85
Strand = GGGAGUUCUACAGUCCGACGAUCGAUAGCUAUAUUCAAAAUGUCUAUAUGUUUAUUUGGACUUUUGAGGUUAAAGACAGUCAUAUAAACGUCCUGUUUCUGUUUUAAUGUUAUCAUAGAAUUUUUUAAUGAAAUGGAAUUCUCGGGUGCCAA; result = 0.82
Strand = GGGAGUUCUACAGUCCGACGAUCUUCUCAGAGAAACUGCCGAAAGUUGCAUUAAAAAAAAUAAAAAGUACAGAAGAAAUAGUUGCCACUGUCUAGGACAGUGCUGAAGCUAGGUGGUUAAACGGGUAACAGAAUGGAAUUCUCGGGUGCCAA; result = 1.39
Strand = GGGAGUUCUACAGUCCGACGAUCCAGUAUACAGAUAACCACAAAGUUGUUAUUUUUAACCAAAAUAUACAUUUCAUAAUGUUGGCACUGGAGUAUUAUAAGAGAUCAUGAAUGUUUCCUUAAUUAUCAUGGCAUGGAAUUCUCGGGUGCCAA; result = 2.39
Strand = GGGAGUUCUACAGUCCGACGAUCGGCCAAGGCCGCUAGGGUCCUUACCCCUCAGGAUCACUCCCCAGCCCUUUCCUCAGGAGGUACCGCUCUCCAAGGUGUGCUAGCAGUGGGCCCUGCCCAACUUCAGGCAGUGGAAUUCUCGGGUGCCAA; result = 0.374

Sample 4 — method: DHFR PCA, deep sequencing; sample: yeast; together with: (+)-ABA 0.032 µM; relative to: wild-type fitted maximum; direction: higher = stronger binding; quantity: relative binding score
Target: ABI1, truncated, D143A, DHFR fusion (Arabidopsis thaliana)
Setting: methotrexate growth selection, single substitutions
Starting sequence: PYL1, truncated, DHFR fusion (Arabidopsis thaliana); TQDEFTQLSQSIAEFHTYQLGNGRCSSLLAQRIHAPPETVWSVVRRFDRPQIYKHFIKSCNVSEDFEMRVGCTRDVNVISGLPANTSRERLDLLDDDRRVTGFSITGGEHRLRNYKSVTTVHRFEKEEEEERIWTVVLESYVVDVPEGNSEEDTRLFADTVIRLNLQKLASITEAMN
Variant = S104W; result = -3.81%
Variant = D3N; result = -7.55%
Variant = D92Y; result = 7.54%
Variant = V118Q; result = 3.53%
Variant = F66E; result = 5.61%
Variant = R155G; result = -6.62%
Variant = V100W; result = -4.13%
Variant = T135V; result = -5.54%
Variant = E89V; result = 3.14%
Variant = S104T; result = 39.3%
Variant = F5P; result = 0.416%
Variant = S87E; result = -4.12%
Variant = H55F; result = 11.5%
Variant = V40W; result = -0.34%
Variant = Y141P; result = -4.92%
Variant = T154D; result = -6.23%
Variant = N177S; result = 43.2%
Variant = N77V; result = 57.6%
Variant = V121T; result = 1.6%
Variant = E109K; result = 1.83%
